Assay results from different studies.
Lines come from different studies, so protocols differ. Several values in a cell are separate wells, animals, samples, runs or records. ± marks the error that the study gave.

SMILES | test | test system | conditions | how to read | endpoint | result
CC(C)NCC(O)c1ccc(O)c(O)c1 (stereo not drawn) |  | ventricular cardiomyocytes, C57BL/6 mouse | dose not given, 0.072 s |  | sarcomere length | 1.72 µm
C[C@H](Oc1ccc(Br)cc1-c1ccon1)C(=O)O | first response peak | human, tibialis anterior muscle | 1200 mg, 15 Hz, single ascending dose |  | difference from placebo | 3.33%
Cn1cc([C@H]2C[C@H]3CSC(N)=N[C@@]3(c3ccc(F)cc3F)CO2)cn1 | measured: Aβx-40 | Mus musculus wild-type, cerebrospinal fluid | subcutaneous, 50 mg/kg, 3 h |  | Aβ40 level | 0.25 ng/mL
N#Cc1ccc2c(c1)[C@H]1CCCN(C(=O)c3ccc4[nH]cnc4c3)[C@H]1C2 | measured: HDL | human | 240 mg once daily, day 28, adjusted mean, added: metformin | baseline: placebo | change from baseline | -0.08 mg/dL
COc1cc(O)c(CC=C(C)C)c(O)c1C(=O)/C=C/c1ccc(O)cc1 |  | male Tac:SW conventional mice, high-fat diet | in diet, 60 mg/kg/day, 10 weeks |  | fasting plasma glucose | 133 mg/dL
NCC(=O)Nc1cncc(-c2nn3c(=O)cc(N4CCNCC4)nc3s2)c1 | ADP-induced platelet aggregation, light transmission aggregometry | human, stable CAD on aspirin, ex vivo platelets | subcutaneous, 0.04 mg/kg, 360 min post-dose, median value, added: ADP 20 µM |  | inhibition | 0%
OC(CCN1CCCCC1)(c1ccccc1)C1CC2C=CC1C2 (stereo not drawn) | resting-state EEG | healthy elderly humans | oral, 4 mg, eyes open, LS mean |  | EEG power, gamma, Fz-Cz | 0.6 µV²
CO[C@H]1CC[C@H](N2C(=O)CNc3ncc(-c4ccc(C(C)(C)O)nc4)nc32)CC1 | flow cytometry | stimulated monocytes, human, blood | 30 mg single dose, 3 h, mean | baseline: baseline | pAKT change from baseline | -55.5%
CN[C@@H]1COc2c(S(=O)(=O)NC(=O)Nc3c4c(cc5c3CCC5)CCC4)cnn2C1 | measured: IL-1β | human participants, whole blood ex vivo | 300 mg twice daily, multiple doses, 4 h, added: LPS/ATP | baseline: baseline | inhibition | 99.5%
COc1ccc(F)cc1C(=O)NCc1ccc(-c2nn([C@@H](C)C(F)(F)F)c(N)c2C(N)=O)cc1 |  | CLL/SLL patients | dose not given, therapy, prior, CAR T-cell |  | overall response rate | 90%
COc1ccc(F)cc1C(=O)NCc1ccc(-c2nn([C@@H](C)C(F)(F)F)c(N)c2C(N)=O)cc1 |  | relapsed/refractory CLL patients | dose not given, monotherapy |  | best overall response NE | 4%
C=CCn1c(=O)c2cnc(Nc3ccc(N4CCN(C)CC4)cc3)nc2n1-c1ccc2c(n1)[C@@](O)(CC)CC2 |  | OVCAR-3 xenograft, NOD/SCID mice | oral, 80 mg/kg, day 49, once daily 7 d on, 7 d off x 3 |  | tumour volume difference | 418 ± 21.7 mm3
N#Cc1ccc(N2CCN(Cc3ccc(COc4cccc5c4CN([C@H]4CCC(=O)NC4=O)C5=O)cc3)CC2)c(F)c1 | deuterium-hydrogen exchange | aqueous phosphate buffer | pH 7.4, 37 °C |  | exchange rate constant | -0.0205 h⁻¹
COc1ncc(-c2nc3c(n2C(C)C)[C@H](c2ccc(Cl)cc2)N(c2cc(Cl)cn(C)c2=O)C3=O)c(OC)n1 | International Working Group criteria | human acute myeloid leukemia patients | oral, 120 mg, response Unknown, high-dose, recommended dose for expansion |  | best overall response | 8.3%
NC(=O)c1cnc2[nH]ccc2c1N[C@@H]1[C@@H]2CC3C[C@H]1C[C@@](O)(C3)C2 | CD4+ naive T cells, flow cytometry | Caucasian humans, peripheral blood | 60 mg single dose | baseline: baseline | percent change | -0.62%
C[C@H]1C[C@H]2CSC(N)=N[C@@]2(c2nc(NC(=O)c3ccc(OC(F)F)cn3)cs2)CO1 | measured: Aβ1-40 | healthy adults, plasma | 50 mg once daily, day 7 | baseline: placebo | percent change from baseline | -87.1%
C=C1CC[C@H](OCCCNC(=O)CCOCCOCCOCCOCCOCCOCCOCCOCCOCCOCCOCCOCCOCCOCCOCCOCCOCCOCCOCCOCCOCCOCCOCCOCCOCCOCCOCCOCCOCCOCCOCCOCCOCCOCCOCCOCCNC(=O)CCN2C(=O)CC(SC[C@H](NC(=O)[C@H](CCCNC(=N)N)NC(=O)[C@@H]3CCCN3C(=O)[C@H](CCC(N)=O)NC(=O)[C@H](CC(C)C)NC(=O)[C@H](CCCCN)NC(=O)[C@H](C)NC(=O)[C@@H]3CCCN3C(=O)[C@@H]3CCCN3C(=O)[C@H](CCCCN)NC(=O)[C@H](CCCCN)NC(=O)[C@H](CO)NC(=O)[C@H](CCC(=O)O)NC(=O)[C@H](CCCCN)NC(=O)[C@H](CCCNC(=N)N)NC(=O)[C@H](CCC(N)=O)NC(=O)[C@H](CCC(N)=O)NC(=O)[C@@H](NC(=O)[C@H](CCCNC(=N)N)NC(=O)[C@H](CCC(N)=O)NC(=O)[C@H](Cc3c[nH]cn3)NC(=O)[C@H](CCC(=O)O)NC(=O)[C@@H]3CCCN3C(=O)[C@H](CO)NC(=O)[C@H](CC(C)C)NC(=O)[C@H](Cc3ccccc3)NC(=O)[C@H](CNC(=O)CCCCCCC)NC(=O)[C@H](CO)NC(=O)CN)C(C)C)C(=O)O)C2=O)C/C1=C/C=C1\CCC[C@]2(C)[C@@H]([C@H](C)CCCC(C)(C)O)CC[C@@H]12 (stereo partly drawn) |  | C57BL/6J mice, LLC tumour-induced cachexia | daily | baseline: pair-fed tumour-bearing vehicle | forelimb grip strength | decreased
CN(C)C(=O)c1cc2cnc(Nc3ccc(N4CCNCC4)cn3)nc2n1C1CCCC1 | RNA-seq GSEA, measured: HALLMARK_PROTEIN_SECRETION gene set | MB002 tumour | concentration not given | baseline: vehicle, direction not given | normalized enrichment score | -1.1
CCOc1c([C@H](C)n2nc(C)c3c(N)ncnc32)cc(Cl)c(F)c1[C@@H]1CNC(=O)C1 | Olink proximity extension proteomics, measured: TNF | human FL or MZL patients, plasma | dose not given, week 8 | baseline: baseline | plasma protein level change | -46%
c1ccc(-c2n[nH]cc2-c2ccnc3ccccc23)nc1 | kinase binding, competitor, MIB/MS competition, measured: KSP1 | Candida albicans cell lysate | 100 nM | baseline: DMSO | log2 fold change | 0.762
C[C@H]1O[C@@H](O[C@H]2CC[C@@]3(C)[C@@H](CC[C@]4(C)[C@@H]3C=C[C@]35OC[C@@]6(CCC(C)(C)C[C@H]63)[C@@H](O)C[C@]54C)[C@]2(C)CO)[C@H](O)[C@@H](O[C@@H]2O[C@H](CO)[C@@H](O)[C@H](O)[C@H]2O)[C@H]1O |  | chronic-plus-binge ethanol mice, liver | oral, 10 mg/kg/day for 7 d, 168 h |  | triglyceride level | 0.138 mmol/g protein and 0.174 mmol/g protein and 0.141 mmol/g protein and 0.134 mmol/g protein and 0.158 mmol/g protein
N#Cc1ccc2c(-c3ccncc3)c(-c3ccc(F)cc3)nn2c1 | kinase binding, competitor, MIB/MS competition, measured: KIN2 | Candida albicans cell lysate | 100 nM | baseline: DMSO | log2 fold change | -0.347
O=C(O)CNC(=O)Cc1ccccc1 |  | ventricular cardiomyocytes, C57BL/6 mouse | dose not given, 0.292 s |  | sarcomere length | 1.7 µm
CN[C@@H](C)C(=O)N[C@H]1CN(S(=O)(=O)c2cccc(S(=O)(=O)N3CC[C@H]4CC[C@@H](C(=O)NC(c5ccccc5)c5ccccc5)N4C(=O)[C@@H](NC(=O)[C@H](C)NC)C3)c2)CC[C@H]2CC[C@@H](C(=O)NC(c3ccccc3)c3ccccc3)N2C1=O | RECIST 1.1 | advanced pancreatic cancer patients | dose not given, prior therapy, added: AG |  | best response stable disease | 33.3%
COc1cc(Nc2ncc3c(n2)-c2ccc(Cl)cc2C(c2c(F)cccc2OC)=NC3)ccc1C(=O)O |  | female NOD/scid mice, ALL-8 T-cell ALL xenograft | 5.2 mg/kg, 5 days weekly, score scale 0 to 10 | direction not given | median response score | 6
O=C1CCc2ccc(OCCCCN3CCN(c4cccc(Cl)c4Cl)CC3)cc2N1 |  | patients | dose not given, 3 months, CYP2D6 pPM and UM |  | discontinuation or switching rate | 29%
CN(C)C(=O)Oc1cccc([N+](C)(C)C)c1 | neuromuscular block reversal | rat | dose not given, 12.5 (unit not given), added: cisatracurium | baseline: T1 twitch | train-of-four ratio | 91.1

Repeated from above:
SMILES | test | test system | conditions | how to read | endpoint | result
c1ccc(-c2n[nH]cc2-c2ccnc3ccccc23)nc1 | kinase binding, competitor, MIB/MS competition, measured: KSP1 | Candida albicans cell lysate | 100 nM | baseline: DMSO | log2 fold change | 0.762
COc1ccc(F)cc1C(=O)NCc1ccc(-c2nn([C@@H](C)C(F)(F)F)c(N)c2C(N)=O)cc1 |  | CLL/SLL patients | dose not given, therapy, prior, CAR T-cell |  | overall response rate | 90%
